Published values from different studies.
Every numbered part comes from another study and shows a few of its results, in no order. Several values in a cell are separate wells, animals, samples, runs or records.
Sequence of UniProt O75582 (whole entry, looked up): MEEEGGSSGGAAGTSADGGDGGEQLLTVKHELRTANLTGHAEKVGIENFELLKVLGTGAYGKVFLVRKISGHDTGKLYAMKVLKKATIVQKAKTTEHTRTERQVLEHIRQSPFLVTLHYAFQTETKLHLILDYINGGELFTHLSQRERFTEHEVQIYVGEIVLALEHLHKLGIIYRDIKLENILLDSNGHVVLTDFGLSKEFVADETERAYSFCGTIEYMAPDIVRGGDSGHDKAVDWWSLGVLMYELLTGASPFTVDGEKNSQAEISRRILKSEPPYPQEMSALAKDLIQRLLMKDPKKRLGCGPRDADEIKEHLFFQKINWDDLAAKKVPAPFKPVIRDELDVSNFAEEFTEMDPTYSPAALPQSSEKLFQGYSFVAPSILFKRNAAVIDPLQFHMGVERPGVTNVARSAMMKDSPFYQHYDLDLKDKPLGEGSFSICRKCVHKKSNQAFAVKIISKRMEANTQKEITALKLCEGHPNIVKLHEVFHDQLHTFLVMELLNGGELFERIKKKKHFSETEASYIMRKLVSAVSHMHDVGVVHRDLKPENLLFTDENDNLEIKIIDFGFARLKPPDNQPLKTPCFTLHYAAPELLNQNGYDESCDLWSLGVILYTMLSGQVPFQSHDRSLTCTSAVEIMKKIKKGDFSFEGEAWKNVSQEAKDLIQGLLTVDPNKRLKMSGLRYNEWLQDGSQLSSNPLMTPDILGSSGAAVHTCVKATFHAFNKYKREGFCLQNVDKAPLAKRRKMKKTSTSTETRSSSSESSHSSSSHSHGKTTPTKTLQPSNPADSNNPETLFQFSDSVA

Series 1 — cell line: HaCaT; concentration: 100 µM; time: 60 h
For `O=C(c1ccc(F)cc1)C1CCN(CCn2c(=O)[nH]c3ccccc3c2=O)CC1`, the viability was 90.9%.
`CC(C)(Oc1ccc(CCNC(=O)c2ccc(Cl)cc2)cc1)C(=O)O` has a viability of 124%.
`[H]/N=C(/N)N/C(=N/[H])NCCc1ccccc1` gave a viability of 108%.
The viability of `OC(CCCN1CCCCC1)(c1ccccc1)c1ccccc1` is reported as 125%.
`C=C1[C@H](CO)[C@@H](O)C[C@@H]1n1cnc2c(=O)[nH]c(N)nc21` has a viability of 86%.
`COc1cccc2c1C(=O)c1c(O)c3c(c(O)c1C2=O)C[C@@](O)(C(C)=O)C[C@@H]3O[C@H]1C[C@H](N)[C@H](O)[C@H](C)O1` gave a viability of 45.9%.
`CN(N=O)C(=O)N[C@@H](C=O)[C@@H](O)[C@H](O)[C@H](O)CO` gave a viability of 144%.

Series 2 — method: Incucyte 3D growth; concentration: 30 µM; reading: higher = more growth
Compound: CC(C)(C(=O)O)[C@H](NC(=O)Cc1cccc(I)c1)c1ccc2oc(=O)[nH]c2c1
It gave 2.45e+08 a.u. and 2.27e+08 a.u. and 2.42e+08 a.u. and 2.58e+08 a.u. and 2.43e+08 a.u. for spheroid area (PC-9; 0 h).
The spheroid area was 3.77e+07 a.u. and 3.01e+07 a.u. and 5.6e+07 a.u. and 3.93e+07 a.u. and 3.81e+07 a.u. and 4.91e+07 a.u. (MEL-JUSO; 348.52 h).
A375; 444.52 h — spheroid area: 1.61e+08 a.u. and 1.77e+08 a.u. and 1.67e+08 a.u. and 1.45e+08 a.u. and 1.8e+08 a.u. and 1.59e+08 a.u.
For A375; 132 h: spheroid area read 8.13e+07 a.u. and 7.78e+07 a.u. and 8.57e+07 a.u. and 6.73e+07 a.u. and 9.4e+07 a.u. and 7.54e+07 a.u.
A375; 60 h — spheroid area: 3.74e+07 a.u. and 3.52e+07 a.u. and 3.95e+07 a.u. and 1.36e+07 a.u. and 1.39e+07 a.u. and 1.69e+07 a.u.

Series 3 — species: C57BL/6 CES1-/- mice, EL4 tumour; medium: EL4 tumour; route: subcutaneous; dose: 0.3 mg/kg/day DON equivalent; time: 5 days
Compound: CC(=O)N[C@@H](Cc1c[nH]c2ccccc12)C(=O)N[C@@H](CCC(=O)C=[N+]=[N-])C(=O)OC(C)C
It gave 711000 a.u. and 901000 a.u. and 244000 a.u. and 745000 a.u. and 529000 a.u. and 500000 a.u. for “metabolite peak intensity” (UPLC-MS/MS metabolomics, refers to: gamma-glutamyltyrosine; normalised to tissue mass).
The “metabolite peak intensity” was 630000 a.u. and 592000 a.u. and 1.95e+06 a.u. and 1.35e+06 a.u. and 2.59e+06 a.u. and 1.56e+06 a.u. (LC-MS/MS metabolomics, refers to: 2,3-dihydroxy-2-methylbutyrate; normalised to tissue mass; higher = more metabolite).
UPLC-MS/MS, refers to: 5,6-dihydrouridine — “metabolite peak intensity”: 88400 a.u. and 64400 a.u. and 70100 a.u. and 72600 a.u. and 76400 a.u. and 108000 a.u.
The “metabolite peak intensity” was 33600 a.u. and 74200 a.u. and 85900 a.u. and 95100 a.u. and 31800 a.u. and 103000 a.u. (LC-MS/MS metabolomics, refers to: 2-hydroxy-3-methylvalerate; normalised to tissue mass; higher = more metabolite).
LC-MS/MS metabolomics, refers to: phenyllactate; higher = more metabolite — “metabolite peak intensity”: 111000 a.u. and 235000 a.u. and 67000 a.u. and 81000 a.u. and 101000 a.u. and 119000 a.u.
The “metabolite peak intensity” was 1.23e+06 a.u. and 950000 a.u. and 1.68e+06 a.u. and 1.46e+06 a.u. and 860000 a.u. and 946000 a.u. (LC-MS/MS metabolomics, refers to: 3-methylcytidine; normalised to tissue mass; higher = more metabolite).
LC-MS/MS metabolomics, refers to: 3'-dephospho-CoA-glutathione; normalised to tissue mass; higher = more metabolite — “metabolite peak intensity”: 69700 a.u. and 72900 a.u. and 110000 a.u. and 88300 a.u. and 141000 a.u. and 129000 a.u.
The “metabolite peak intensity” was 7.08e+07 a.u. and 6.73e+07 a.u. and 5.15e+07 a.u. and 4.6e+07 a.u. and 5.45e+07 a.u. and 5.93e+07 a.u. (UPLC-MS/MS metabolomics, refers to: N-acetylglutamate; normalised to tissue mass; higher = more metabolite).

Single results of other studies
The remaining binding of `Cn1cncc1[C@](O)(COc1ccc(C#N)cc1-c1ccc(OC(F)(F)F)cc1)c1ccc(C#N)cc1` is reported as 76% (Ribosomal protein S6 kinase alpha-5, C-terminal kinase domain (RPS6KA5, Homo sapiens, UniProt O75582); cell-free assay, competition with immobilised ligand; 1 µM).

A few entries again (series 3):
The “metabolite peak intensity” was 33600 a.u. and 74200 a.u. and 85900 a.u. and 95100 a.u. and 31800 a.u. and 103000 a.u. (LC-MS/MS metabolomics, refers to: 2-hydroxy-3-methylvalerate; normalised to tissue mass; higher = more metabolite).
LC-MS/MS metabolomics, refers to: phenyllactate; higher = more metabolite — “metabolite peak intensity”: 111000 a.u. and 235000 a.u. and 67000 a.u. and 81000 a.u. and 101000 a.u. and 119000 a.u.
